Experimental data from different studies.
Compare with care: the assays were run in different laboratories. Values joined by “and” are separate records of one study, mostly repeats; a detail may differ. Numbers after ± are the reported error.
TOP2A: DNA topoisomerase 2-alpha (TOP2A, Homo sapiens, UniProt P11388)
BEST2: Bestrophin-2a (BEST2, Homo sapiens, UniProt Q8NFU1)
UniProt Q8NFU1, sequence (whole entry, looked up): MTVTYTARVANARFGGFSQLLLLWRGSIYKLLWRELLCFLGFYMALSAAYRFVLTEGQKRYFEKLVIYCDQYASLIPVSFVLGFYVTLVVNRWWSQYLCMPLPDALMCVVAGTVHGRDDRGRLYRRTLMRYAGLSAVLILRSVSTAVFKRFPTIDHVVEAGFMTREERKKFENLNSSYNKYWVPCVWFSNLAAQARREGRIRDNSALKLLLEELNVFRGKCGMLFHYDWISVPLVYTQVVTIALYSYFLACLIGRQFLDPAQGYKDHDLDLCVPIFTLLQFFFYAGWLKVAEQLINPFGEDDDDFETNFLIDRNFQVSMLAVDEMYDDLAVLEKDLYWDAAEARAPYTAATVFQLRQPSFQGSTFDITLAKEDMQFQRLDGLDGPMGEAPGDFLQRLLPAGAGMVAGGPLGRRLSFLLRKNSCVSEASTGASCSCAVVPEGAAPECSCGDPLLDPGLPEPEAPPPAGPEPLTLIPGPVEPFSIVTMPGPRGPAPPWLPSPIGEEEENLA
UniProt Q7TMS5, sequence (whole entry, unmodified, looked up): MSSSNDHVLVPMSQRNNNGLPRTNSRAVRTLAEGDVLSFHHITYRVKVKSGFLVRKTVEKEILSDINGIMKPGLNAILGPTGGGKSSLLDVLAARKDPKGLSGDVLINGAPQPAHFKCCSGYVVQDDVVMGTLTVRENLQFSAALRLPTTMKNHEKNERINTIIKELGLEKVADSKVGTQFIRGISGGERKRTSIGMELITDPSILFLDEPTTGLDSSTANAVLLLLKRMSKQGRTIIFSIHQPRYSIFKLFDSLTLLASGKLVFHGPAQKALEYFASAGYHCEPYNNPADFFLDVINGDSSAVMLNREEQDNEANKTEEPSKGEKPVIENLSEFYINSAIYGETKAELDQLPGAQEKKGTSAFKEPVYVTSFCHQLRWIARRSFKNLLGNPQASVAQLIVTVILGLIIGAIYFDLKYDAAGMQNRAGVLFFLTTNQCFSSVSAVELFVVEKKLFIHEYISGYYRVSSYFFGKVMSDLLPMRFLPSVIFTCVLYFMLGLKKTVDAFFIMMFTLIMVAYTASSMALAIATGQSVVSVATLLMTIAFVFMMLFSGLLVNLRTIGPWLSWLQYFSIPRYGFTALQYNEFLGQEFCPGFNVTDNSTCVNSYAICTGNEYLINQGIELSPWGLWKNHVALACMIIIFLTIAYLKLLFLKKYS
UniProt Q16774, sequence (whole entry, unmodified, looked up): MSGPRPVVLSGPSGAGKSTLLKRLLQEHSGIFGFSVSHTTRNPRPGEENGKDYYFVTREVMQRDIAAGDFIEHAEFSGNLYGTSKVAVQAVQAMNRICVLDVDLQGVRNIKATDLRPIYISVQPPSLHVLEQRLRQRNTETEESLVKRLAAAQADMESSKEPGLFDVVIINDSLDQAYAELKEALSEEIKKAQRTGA
UniProt Q9UM73, sequence (whole entry, looked up): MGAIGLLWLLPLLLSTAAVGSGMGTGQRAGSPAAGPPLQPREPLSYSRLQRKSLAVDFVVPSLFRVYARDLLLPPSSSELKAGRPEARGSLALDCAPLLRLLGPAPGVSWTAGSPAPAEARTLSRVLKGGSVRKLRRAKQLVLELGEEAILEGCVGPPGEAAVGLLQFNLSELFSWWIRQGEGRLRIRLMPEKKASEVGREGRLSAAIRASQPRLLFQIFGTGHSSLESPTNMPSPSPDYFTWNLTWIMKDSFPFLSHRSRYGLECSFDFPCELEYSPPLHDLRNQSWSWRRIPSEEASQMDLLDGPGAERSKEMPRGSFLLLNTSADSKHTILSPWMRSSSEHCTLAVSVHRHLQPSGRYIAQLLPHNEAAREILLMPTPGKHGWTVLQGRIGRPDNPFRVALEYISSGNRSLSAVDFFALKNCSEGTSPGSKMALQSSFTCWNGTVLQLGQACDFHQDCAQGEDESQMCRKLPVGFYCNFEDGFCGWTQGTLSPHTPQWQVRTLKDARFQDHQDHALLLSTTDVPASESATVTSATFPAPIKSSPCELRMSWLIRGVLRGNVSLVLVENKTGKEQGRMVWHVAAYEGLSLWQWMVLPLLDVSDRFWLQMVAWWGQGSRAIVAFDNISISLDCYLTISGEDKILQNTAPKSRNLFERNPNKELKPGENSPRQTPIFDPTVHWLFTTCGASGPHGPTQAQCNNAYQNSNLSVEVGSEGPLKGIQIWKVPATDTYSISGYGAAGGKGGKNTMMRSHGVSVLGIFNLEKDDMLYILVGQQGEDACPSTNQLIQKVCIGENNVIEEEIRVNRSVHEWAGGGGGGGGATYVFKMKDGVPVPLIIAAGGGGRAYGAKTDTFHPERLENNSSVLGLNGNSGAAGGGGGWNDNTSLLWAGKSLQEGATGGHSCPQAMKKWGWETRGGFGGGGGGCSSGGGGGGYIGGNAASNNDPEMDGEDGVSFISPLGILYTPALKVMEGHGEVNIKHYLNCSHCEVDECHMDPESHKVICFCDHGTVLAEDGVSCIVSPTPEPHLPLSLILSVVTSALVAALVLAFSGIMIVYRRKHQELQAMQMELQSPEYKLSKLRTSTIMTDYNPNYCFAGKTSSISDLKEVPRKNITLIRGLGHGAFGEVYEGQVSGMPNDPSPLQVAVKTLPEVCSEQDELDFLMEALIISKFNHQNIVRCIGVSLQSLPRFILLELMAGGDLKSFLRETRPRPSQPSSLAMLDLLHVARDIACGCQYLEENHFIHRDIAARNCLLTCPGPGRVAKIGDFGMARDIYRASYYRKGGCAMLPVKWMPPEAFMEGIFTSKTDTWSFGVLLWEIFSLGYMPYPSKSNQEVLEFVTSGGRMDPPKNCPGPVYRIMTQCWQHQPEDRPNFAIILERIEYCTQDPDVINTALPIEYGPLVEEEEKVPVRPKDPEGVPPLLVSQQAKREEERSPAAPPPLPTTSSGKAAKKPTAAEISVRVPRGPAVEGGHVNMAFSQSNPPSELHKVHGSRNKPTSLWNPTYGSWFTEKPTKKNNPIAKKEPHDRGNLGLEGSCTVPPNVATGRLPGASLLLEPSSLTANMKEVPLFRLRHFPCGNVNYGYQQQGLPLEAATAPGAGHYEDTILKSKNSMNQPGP
UniProt P51575, sequence (whole entry, looked up): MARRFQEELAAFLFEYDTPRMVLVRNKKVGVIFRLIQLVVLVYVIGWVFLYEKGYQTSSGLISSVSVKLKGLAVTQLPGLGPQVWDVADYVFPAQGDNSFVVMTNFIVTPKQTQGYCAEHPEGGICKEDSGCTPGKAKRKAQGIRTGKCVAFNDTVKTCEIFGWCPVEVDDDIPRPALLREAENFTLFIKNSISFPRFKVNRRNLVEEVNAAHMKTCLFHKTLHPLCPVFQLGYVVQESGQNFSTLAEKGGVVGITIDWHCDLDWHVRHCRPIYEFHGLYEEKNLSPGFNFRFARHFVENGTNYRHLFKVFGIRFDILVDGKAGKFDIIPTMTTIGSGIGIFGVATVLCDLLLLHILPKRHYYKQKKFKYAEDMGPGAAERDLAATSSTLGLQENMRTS
UniProt Q8IVV7, sequence (whole entry, looked up): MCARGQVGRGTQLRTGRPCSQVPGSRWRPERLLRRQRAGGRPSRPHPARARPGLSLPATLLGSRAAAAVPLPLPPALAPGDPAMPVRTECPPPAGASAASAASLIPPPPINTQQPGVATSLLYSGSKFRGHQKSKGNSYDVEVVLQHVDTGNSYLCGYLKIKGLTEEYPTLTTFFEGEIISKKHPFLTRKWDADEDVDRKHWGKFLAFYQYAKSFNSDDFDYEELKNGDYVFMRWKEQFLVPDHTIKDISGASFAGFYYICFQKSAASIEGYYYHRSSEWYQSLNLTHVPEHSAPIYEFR
UniProt P10276, sequence (whole entry, looked up): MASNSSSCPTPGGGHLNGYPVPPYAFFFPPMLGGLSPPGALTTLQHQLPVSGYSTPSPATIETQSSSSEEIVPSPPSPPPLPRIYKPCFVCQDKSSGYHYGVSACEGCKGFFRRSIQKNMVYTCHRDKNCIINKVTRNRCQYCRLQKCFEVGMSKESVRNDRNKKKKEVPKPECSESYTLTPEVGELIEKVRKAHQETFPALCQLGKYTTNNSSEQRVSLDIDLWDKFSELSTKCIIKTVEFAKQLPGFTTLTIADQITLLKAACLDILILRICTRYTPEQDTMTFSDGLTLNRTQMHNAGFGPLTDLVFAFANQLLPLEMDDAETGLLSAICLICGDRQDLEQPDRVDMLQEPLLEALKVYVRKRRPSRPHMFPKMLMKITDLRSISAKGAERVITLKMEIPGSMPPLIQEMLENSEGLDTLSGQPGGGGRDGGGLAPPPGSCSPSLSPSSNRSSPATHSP
UniProt P08246, sequence (whole entry, looked up): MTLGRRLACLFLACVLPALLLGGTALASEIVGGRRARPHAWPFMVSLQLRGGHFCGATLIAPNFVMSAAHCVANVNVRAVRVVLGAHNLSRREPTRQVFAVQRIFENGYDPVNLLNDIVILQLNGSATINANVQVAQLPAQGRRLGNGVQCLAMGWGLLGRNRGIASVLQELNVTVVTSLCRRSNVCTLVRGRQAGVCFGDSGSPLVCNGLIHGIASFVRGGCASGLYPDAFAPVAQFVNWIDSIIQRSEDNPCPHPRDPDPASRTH
UniProt Q01782, sequence (whole entry, looked up): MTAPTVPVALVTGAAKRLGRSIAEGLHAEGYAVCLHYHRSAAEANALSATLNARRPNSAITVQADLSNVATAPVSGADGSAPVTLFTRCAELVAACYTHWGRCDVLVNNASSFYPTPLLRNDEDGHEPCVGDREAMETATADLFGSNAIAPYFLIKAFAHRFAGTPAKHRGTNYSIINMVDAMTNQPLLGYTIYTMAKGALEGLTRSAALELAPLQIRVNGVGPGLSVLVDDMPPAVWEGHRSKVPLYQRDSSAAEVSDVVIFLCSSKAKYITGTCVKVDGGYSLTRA
UniProt P00441, sequence (whole entry, unmodified, looked up): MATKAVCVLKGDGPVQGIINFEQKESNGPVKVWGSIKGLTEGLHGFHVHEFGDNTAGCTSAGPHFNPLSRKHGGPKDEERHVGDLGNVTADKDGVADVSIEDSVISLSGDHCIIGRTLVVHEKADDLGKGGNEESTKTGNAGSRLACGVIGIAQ

Structure (SMILES)	target	assay	test system	conditions	how to read	quantity	value
N#Cc1ccc(C[C@H](NC(=O)c2cc3ccccc3[nH]2)C(=O)N2CCc3ccccc32)cc1	fMet-Leu-Phe receptor (FPR1, Homo sapiens, UniProt P21462)	calcium mobilization, agonist	HL-60	concentration not given		agonist activity	inactive
CC1CCCN(C(=O)c2cc3ncccn3n2)C1 (centres unmarked)	Histone-lysine N-methyltransferase SETDB1, triple tudor domain (SETDB1, Homo sapiens, UniProt Q15047)	binding, affinity selection mass spectrometry			reference: other proteins in batch	log fold enrichment	-0.225
CN(Cc1cnc2nc(N)nc(N)c2n1)c1ccc(C(=O)N[C@@H](CCC(=O)O)C(=O)O)cc1	Proton-coupled folate transporter (Homo sapiens, UniProt Q96NT5, del25-251)		cells co-transfected with half-molecules	pH 5.5, 37 °C		uptake	5.3%
[Zn+2]	Otop1 (Mus musculus, UniProt Q80VM9)	acid-evoked current, inhibitor, whole-cell patch-clamp	HEK293T	0.001 mM, pH 5.5, unit not given	reference: current before compound	remaining current	0.903
Nc1nc2c(ncn2[C@@H]2O[C@H](COP(=O)(O)O)[C@@H](O)[C@H]2O)c(=O)[nH]1	GUK1 (Homo sapiens, UniProt Q16774, S37A)	enzyme activity, NADH-coupled		500 µM		reaction rate	4.23 s⁻¹ and 1.34 s⁻¹ and 3.96 s⁻¹
O=c1nc(SCc2cc(F)cc(C(F)(F)F)c2)nc(SCc2csc3ccc(Cl)cc23)[nH]1	TOP2A	decatenation		1.95 µM, replicate 2		decatenated DNA	38.5%
O=C(O)c1ccc(Nc2ncc3c(n2)-c2ccc(Cl)cc2C(c2c(F)cccc2F)=NC3)cc1	human TSSK2(h)	kinase activity		1 µM		remaining activity	101%
[O-][S+]1CCCCS1 (centres unmarked)	Superoxide dismutase [Cu-Zn] (SOD1, Homo sapiens, UniProt P00441, G94A)	LC-MS	human whole blood	5000 µM, 1 h, 37 °C		SOD1 monomer fraction	8.28%
O=C(COP(=O)(O)O)[C@@H](O)[C@H](O)[C@H](O)COP(=O)(O)O	HMGCS1 (Homo sapiens, UniProt Q01581)	thermal proteome profiling	HepG2 cell lysate	concentration not given, 57 over 37 °C, mean	reference: compound over control	thermal stability ratio	0.604
O=C(O)c1ccc(O)cc1	BEST2	whole-cell patch clamp	HEK293 transiently expressing channel	concentration not given, membrane potential 60 mV		current density	161 pA/pF and 121 pA/pF and 142 pA/pF and 120 pA/pF and 79.8 pA/pF and 68.5 pA/pF and 95.5 pA/pF
c1ccc(CCCCCOCCc2ccc3ccoc3c2)cc1	ATP2A2 (Sus scrofa, UniProt P11607)	ATPase Vmax increase, activator	pig microsomes	0.1 to 50 µM	reference: vehicle	Emax	≤ 57%
COc1cc(C(=O)NS(=O)(=O)c2ccccc2C)ccc1Cc1cn(C)c2ccc(NC(=O)OC3CCCC3)cc12	LRRC8A/LRRC8C (Homo sapiens, UniProt Q8IWT6+Q8TDW0)	ion current, inhibitor, whole-cell patch clamp	HCT116 LRRC8 knockout, transfected	-100 mV, LRRC8A/LRRC8C heteromer		Hill coefficient	1.67
CC1(C)C(/C=C/C=C2/N(CCCc3ccccc3)c3ccc4ccccc4c3C2(C)C)=[N+](CCCc2ccccc2)c2ccc3ccccc3c21.[Br-]	Protein arginine N-methyltransferase 6 (PRMT6, Homo sapiens, UniProt Q96LA8)	inhibitor, filter binding		with: R4 peptide substrate		Hill coefficient	1.29
CC(=C/C(=O)O)/C=C/C=C(\C)C1C=C2C(C)(C)CCCC2(C)O1 (centres unmarked)	Rhodopsin (RHO, Homo sapiens, UniProt P08100, T17M)	immunostaining, item: opsin	COS-7 transfected	50.00 µM, unit not given	reference: surface over total stained cells	plasma membrane localization	0.97
COc1cc(N2CCC(N3CCN(C)CC3)CC2)ccc1Nc1ncc(Cl)c(Nc2ccccc2P(C)(C)=O)n1	GID4/ALK (Homo sapiens, UniProt Q8IVV7+Q9UM73)	ternary complex formation	HEK293T	500 nM, 6 h	reference: normalised ratio	NanoBRET ratio	0.895 and 1.11 and 0.919
Nc1ccc(C(=O)O)cc1	BEST2	whole-cell patch clamp	HEK293 transiently expressing channel	concentration not given, membrane potential -40 mV		current density	-65.1 pA/pF and -115 pA/pF and -92.9 pA/pF and -146 pA/pF and -32.4 pA/pF and -128 pA/pF

Structure (SMILES)	target	assay	test system	conditions	how to read	quantity	value
C=CC(=O)N1CCC[C@@H](n2nc(-c3ccc(Oc4ccccc4)cc3)c3c(N)ncnc32)C1	Ephrin type-A receptor 10 (EPHA10, Homo sapiens, UniProt Q5JZY3)			0.1 µM		remaining activity	458%
O=c1nc(SCc2cc(F)cc(C(F)(F)F)c2)nc(SCc2ccc3ccccc3n2)[nH]1	TOP2A	decatenation		15.6 µM, replicate 1		decatenated DNA	100%
O=c1cc(-c2ccc(OS(=O)(=O)[O-])cc2)oc2cc(OS(=O)(=O)[O-])cc(OCc3cccc(COc4cc(OS(=O)(=O)[O-])cc5oc(-c6ccc(OS(=O)(=O)[O-])cc6)cc(=O)c45)n3)c12.[Na+].[Na+].[Na+].[Na+]	Neutrophil elastase (ELANE, Homo sapiens, UniProt P08246)			1000 nM, with: chromogenic substrate		Vmax	15.3 ± 1.6 mAU/min
Cc1nc(CSc2nc(SCc3ccc(C(F)(F)F)cc3)nc(=O)[nH]2)cs1	TOP2A	decatenation		7.8 µM		mean decatenated DNA	98.7%
Oc1ccc(/C=C/c2cc(O)cc(O)c2)cc1	O-methyltransferase (Sorghum bicolor, UniProt A0A1B6PFV1)			concentration not given, with: SAH+		ΔH of binding	-14.4 ± 0.172 kcal/mol
CC(=O)/N=c1/sc(S(N)(=O)=O)nn1C	Carbonic anhydrase 4 (CA4, Homo sapiens, UniProt P22748)	ITC		concentration not given, 25 °C		intrinsic binding ΔH	-7.31 kcal/mol
COc1ccc2c3c([nH]c2c1)[C@H](CC(C)C)N1C(=O)[C@H](CC(=O)NC(C)C)NC(=O)[C@@H]1C3	Broad substrate specificity ATP-binding cassette transporter ABCG2 (Mus musculus, UniProt Q7TMS5)	inhibitor, item: protoporphyrin IX	Fech-mutant mice, red blood cells	10 µM, 1 h		efflux	8.9% and 8.3% and 8.1% and 3% and 8.8% and 2.9%
CCOc1cccc(C2CC(=O)Nc3c2c(C)nn3-c2ccc3nncn3n2)c1 (centres unmarked)	DNA damage-binding protein 1 (DDB1, Homo sapiens, UniProt Q16531)	binding, surface plasmon resonance		15 µM		SPR response	8.41 RU
CCCCCCCCC(=O)c1cc(O)c(O)c(O)c1	Retinoic acid receptor alpha (RARA, Homo sapiens, UniProt P10276)	reporter gene, Gal4 hybrid reporter		10 µM	reference: vehicle	activation	2.01 fold
CN(C)C(=O)C(CCN1CCC(O)(c2ccc(Cl)cc2)CC1)(c1ccccc1)c1ccccc1	Calcium-activated potassium channel subunit alpha-1, with LRRC26 γ1 subunit (KCNMA1, Homo sapiens, UniProt Q12791)	ion current, inside-out patch, mean of individual fits	BKα/γ1 channel	3 µM, with: nominally 0 Ca2+		V1/2	-0.87 ± 4 mV
Nc1ncnc2c1nc(Br)n2[C@@H]1O[C@@H]2COP(=O)(O)O[C@H]2[C@H]1O	anti-cGMP antibody	antibody binding, competitive cGMP EIA		concentration not given, acetylated samples	reference: EC50 cGMP over EC50 cpd, higher = stronger binding	relative binding affinity	0.0024
CCOC(=O)C1CCN(C(=O)c2ccc(N(C)Cc3cnc4nc(N)nc(N)c4n3)cc2)CC1	Pteridine reductase 1 (Leishmania major, UniProt Q01782)			hDHFR weight 10	reference: LmPTR1, LmDHFR over hDHFR, 1.0 selective, 0.0 non-selective	partition index	0.92
Nc1ncnc2c1ncn2[C@@H]1O[C@H](COP(=O)(O)CP(=O)(O)OP(=O)(O)O)[C@@H](O)[C@H]1O	P2X purinoceptor 1 (P2RX1, Homo sapiens, UniProt P51575)	calcium influx		100 nM	reference: ionomycin response	calcium influx	46.9% and 55% and 36.8% and 32.2%
Cc1cccc(N2CC(C(=O)O)CC2=O)c1 (centres unmarked)	DNA (cytosine-5)-methyltransferase 3A, PWWP domain (DNMT3A, Homo sapiens, UniProt Q9Y6K1)	binding, affinity selection mass spectrometry			reference: other proteins in batch	fold enrichment	1.11
Oc1ccccc1-c1n[nH]cc1-c1ccnc2ccccc12	Cell cycle protein kinase DBF2 (DBF2, Candida albicans, UniProt Q59KM8)	kinase binding, MIB/MS competition	Candida albicans lysate	10 µM	reference: DMSO, negative = stronger binding	log2 fold change	-0.09
COc1cc(/C=C2\SC(=O)NC2=O)cc(F)c1OCCNc1nc2c(cnn2C2CCCC2)c(=O)[nH]1	cGMP-dependent 3',5'-cyclic phosphodiesterase (PDE2A, Homo sapiens, UniProt O00408)				reference: PDE2A over PDE9	selectivity ratio	51 fold

For quick reference, copied from above:
Structure (SMILES)	target	assay	test system	conditions	how to read	quantity	value
Cc1cccc(N2CC(C(=O)O)CC2=O)c1 (centres unmarked)	DNA (cytosine-5)-methyltransferase 3A, PWWP domain (DNMT3A, Homo sapiens, UniProt Q9Y6K1)	binding, affinity selection mass spectrometry			reference: other proteins in batch	fold enrichment	1.11
Nc1ncnc2c1nc(Br)n2[C@@H]1O[C@@H]2COP(=O)(O)O[C@H]2[C@H]1O	anti-cGMP antibody	antibody binding, competitive cGMP EIA		concentration not given, acetylated samples	reference: EC50 cGMP over EC50 cpd, higher = stronger binding	relative binding affinity	0.0024
